Measured values pooled from the literature.
Compare with care: the assays were run in different laboratories. Numbers after ± are the reported error.

Compound | test | system | conditions | scale | endpoint | result
CC(C)n1c(Nc2cccnc2)nc2cnc(Nc3ccc(N4CCN(C)CC4)cc3)nc21 | item: sinus bradycardia | healthy male subjects | oral, 150 mg, study, together with: rifampin |  | subjects with adverse event | 7.1%
COc1cc(Nc2ncc3c(n2)-c2ccc(Cl)cc2C(c2c(F)cccc2OC)=NC3)ccc1C(=O)O | item: Pain, grade 1 | cancer patients, phase 1/2 | oral, dose not given, together with: pembrolizumab |  | patients with adverse event | 8%
NS(=O)(=O)c1ccc(-n2nc(C(F)(F)F)cc2-c2ccc(CO)cc2)cc1 |  | Sprague-Dawley rat | oral, 20 mg/kg of celecoxib, 8 h |  | blood-to-plasma ratio | 35.1
Cc1c(-c2ccc(N3CCc4cccc(C(=O)Nc5nc6ccccc6s5)c4C3)nc2C(=O)O)cnn1CC12CC3(C)CC(C)(C1)CC(OCCNCC[C@H](O)CO)(C3)C2 |  | anaesthetized male beagle dog | iv infusion, 0.01 mg/kg/min, 150 min |  | plasma concentration | < 2 ng/mL
COc1ncc(-c2nc3c(n2C(C)C)[C@H](c2ccc(Cl)cc2)N(c2cc(Cl)cn(C)c2=O)C3=O)c(OC)n1 | LC-MS/MS | human, plasma | oral, 20 mg, cycle 1 day 1, low-dose arm |  | AUC(0-last) | 2290 ng·h/mL
CCN1/C(=C/C(C)=O)Sc2ccc(F)cc21 |  | cynomolgus monkey | oral, 10 mg/kg, 6 h post-dose | reference: pre-dose | diastolic blood pressure change | 114 ± 14.2%
Cc1cc(NC2CCN(C(=O)OC3CCN(C(=O)/C=C/CN(C)C)C3)CC2)n2ncc(C(C)C)c2n1 (stereo not shown) | Phase I dose escalation CTCAE v4.0, item: maculo-papular rash | patients with advanced solid tumours | dose not given, TIW dosing any grade |  | patients with adverse event | 0%
Cc1ccc(Sc2ccccc2N2CCNCC2)c(C)c1 | item: Headache | healthy adult men | oral, 10 mg single dose |  | participants with TEAE | 0%
N=C(N)NCCNC(=O)C1(Nc2ccccc2)CCN(Cc2ccccc2)CC1 |  | female Sprague-Dawley rats, plasma | oral, 50 mg/kg |  | half-life | 0.2 ± 0.1 h
CCn1cc(C(=O)N2CCOCC2)c(=O)c2cc(NC3Cc4ccccc4C3)cnc21 |  | human, fasted, plasma | oral, 1200 mg single dose, tablet, arithmetic mean |  | Cmax | 6430 ng/mL
O=C(N[C@H](Cc1c[nH]c2ccccc12)C(=O)Nc1ccncc1)c1ccc(-c2ccc(F)c(C(F)(F)F)c2)cc1F |  | Swiss Webster mouse, female, brain | oral, 50 mg/kg, 8 h, 20% HPβCD vehicle |  | concentration | 1350 nM
COc1cc2c3c(c(=O)oc2c(C2OCCCO2)c1O)CN(C)CC3 | HPLC | PBS | concentration not given, 48 h, 37 °C |  | acetal hydrolysis | ~70%
CC(C)(C(=O)N1CCOc2c(C#N)cncc2C1)C(F)F | item: renal and urinary disorders | human, both sexes | oral, 10 mg once daily, 14 days, multiple ascending dose |  | subjects with TEAE | 12.5%
O=C1CCc2ccc(OCCCCN3CCN(c4cccc(Cl)c4Cl)CC3)cc2N1 | item: Tremor | genotyped patients, CYP2D6 ultrarapid metabolizers | dose not given, long-acting oral or depot |  | adverse event incidence | 13%
O=C(Nc1nc2cccc(-c3ccc(CN4CCS(=O)(=O)CC4)cc3)n2n1)C1CC1 | item: pharyngitis | human rheumatoid arthritis patients | oral, 200 mg once daily, 4 weeks, regardless of relatedness |  | treatment-emergent adverse events | 0%
FC(F)(F)c1ccc(CNc2ccc(Cc3c[nH]c4ncc(Cl)cc34)cn2)cn1 | item: dry skin | human, advanced solid tumours, all patients | oral, 1000 mg/day, any grade |  | treatment-related adverse events | 6%
Cl.[2H]C([2H])([2H])CC(=O)c1cnc(NC(=O)C2CC2)cc1Nc1cccc(-c2ncn(C([2H])([2H])[2H])n2)c1OC | median | human | oral, 20 mg twice daily, day 7, fed, liquid, multiple dose |  | Tmax | 1.62 h
Cc1cc(-c2nnc(N)nc2-c2ccc(F)cc2)cc(Cl)n1 |  | human, post-IO NSCLC | oral, 100 mg, phase Ia/Ib, any grade |  | patients with treatment-related AE | 94.1%
CO[C@H]1C[C@@H]2CC[C@@H](C)[C@@](O)(O2)C(=O)C(=O)N2CCCC[C@H]2C(=O)O[C@H]([C@H](C)C[C@@H]2CC[C@@H](OC(=O)NCCOCCOCCOCCOCCOCCOCCOCCOCCC(=O)N3CCc4cc(Cn5nc(-c6ccc7oc(N)nc7c6)c6c(N)ncnc65)ccc4C3)[C@H](OC)C2)C[C@@H](O)[C@H](C)/C=C(\C)[C@@H](O)[C@@H](OC)C(=O)[C@H](C)C[C@H](C)/C=C/C=C/C=C/1C |  | human patients, plasma | intravenous, 10 mg, cycle 1 day 1, weekly dosing, 1 h infusion, arithmetic mean |  | Tmax | 1 h
O=C(NCCN1CCCC1)c1cc(-c2ccc(CN3CCOCC3)cc2)nc2ccc(F)cc12 |  | human, whole blood | oral, 2100 mg, 1.5 h |  | blood concentration | 1240 ng/mL

Compound | test | system | conditions | scale | endpoint | result
CC(C)[C@@H](CN1CC[C@@](C)(c2cccc(O)c2)[C@@H](C)C1)NC(=O)[C@H]1Cc2ccc(O)cc2CN1 |  | Sprague-Dawley rat, brain | intraperitoneal, 3 mg/kg |  | half-life | 68.4 h
NC1(C(=O)N[C@@H](CCO)c2ccc(Cl)cc2)CCN(c2ncnc3[nH]ccc23)CC1 |  | human patients, plasma | 80 mg twice daily, day 8, continuous dosing |  | geometric mean Cmax | 172 ng/mL
COc1ccc([C@@H](O)c2cc(-c3ncnc4cc(N5CCOCC5)ccc34)c(F)cc2Cl)nn1 |  | locally advanced rectal cancer patients | 250 mg, together with: capecitabine and radiotherapy |  | drug-related blood lymphatic AE | 50%
C[C@H](CCC(=O)O)[C@H]1CC[C@H]2[C@@H]3[C@H](O)C[C@@H]4C[C@H](O)CC[C@]4(C)[C@H]3CC[C@]12C |  | human, plasma | endogenous control diurnal | reference: daily mean concentration | relative peak deviation | 155 ± 28%
CCO[C@H]1CCN(Cc2c(OC)cc(C)c3[nH]ccc23)[C@H](c2ccc(C(=O)O)cc2)C1 |  | severe hepatic impairment patients | oral, 200 mg, geometric mean |  | unbound AUC(0-inf) | 13700 ng·h/mL
CCOc1c([C@H](C)n2nc(C)c3c(N)ncnc32)cc(Cl)c(F)c1[C@@H]1CNC(=O)C1 |  | patients, monotherapy | oral, 30 mg once daily, cycle 1 day 1 |  | Cmax geometric mean | 3190 nM
OC[C@H]1O[C@@H](c2ccc(Cl)c(Cc3ccc(O[C@H]4CCOC4)cc3)c2)[C@H](O)[C@@H](O)[C@@H]1O |  | Japanese type 1 diabetes patients, blood | 25 mg, day 28 | reference: baseline | change in LDL cholesterol | 3.42 mg/dL
CCc1cc(C(=O)NC)c2nccc(N3CCc4c(cc(Cn5ccnc5)cc4-c4cn(C)nc4C(F)(F)F)C3=O)c2c1 |  | Sprague Dawley rats | oral, 50 mg/kg once daily, 7 days |  | mean corpuscular haemoglobin | 20.4 ± 0.98 pg
CC(C)c1nc(N(C)S(C)(=O)=O)nc(-c2ccc(F)cc2)c1/C=C/[C@@H](O)C[C@@H](O)CC(=O)O |  | rat Wistar albino | dose not given, 14 days |  | liver weight | 7.6 g
O=C(COc1ccc(Cl)cc1)NC12CC(c3nnc([C@H]4C[C@@H](OC(F)(F)F)C4)o3)(C1)C2 | item: Tachycardia | healthy humans, both sexes | oral, dose not given, single ascending dose, fasted | reference: subjects | treatment-emergent adverse events | 5.6%
Cc1ccc(C(=O)N(CCCN)C(c2nc3snc(C)c3c(=O)n2Cc2ccccc2)C(C)C)cc1 (stereo not shown) |  | human patients | intravenous, 13 mg/day |  | grade ≥3 hyperbilirubinemia patients | 0%
Nc1ncnc2c1ncn2[C@H]1C[C@@H]2OP(=O)(O)OC[C@H]3O[C@@H](n4cnc5c(N)ncnc54)C[C@@H]3OP(=O)(O)OC[C@H]2O1 |  | non-tumor-bearing mice, serum | intravenous, 1 mg/kg, toxicity study |  | AST | 200 ± 35.9 U/L
CNCc1ccc(-c2[nH]c3cc(F)cc4c3c2CCNC4=O)cc1 |  | human patients | oral, 360 mg twice daily, all grades |  | dizziness incidence | 25%
Cc1ccc([C@@H]2O[C@H](CO)[C@@H](O)[C@H](O)[C@H]2O)cc1Cc1ccc(-c2ccc(F)cc2)s1 |  | Japanese type 2 diabetes patients | 400 mg, day 16, 24 h urine collection | reference: baseline | urinary potassium excretion change | -1.28 mEq
CN(C)C(=N)N=C(N)N | item: infections and infestations | healthy men | oral, dose not given, 8 days, treatment-emergent, crossover trial |  | subjects with adverse event | 0%
C=CC[C@@H]1/C=C(\C)C[C@H](C)C[C@H](OC)[C@H]2O[C@@](O)(C(=O)C(=O)N3CCCC[C@H]3C(=O)O[C@H](/C(C)=C/[C@@H]3CC[C@@H](O)[C@H](OC)C3)[C@H](C)[C@@H](O)CC1=O)[C@H](C)C[C@@H]2OC | radiotelemetry | Wistar Kyoto rats, male | ip, 0.5 mg/kg/day, first 5 days, normalized thereafter | reference: vehicle | mean arterial pressure increase | 10 ± 4 mmHg
C[C@H](CCC(=O)NCC(=O)O)[C@H]1CC[C@H]2[C@@H]3CC[C@@H]4C[C@H](O)CC[C@]4(C)[C@H]3C[C@H](O)[C@]12C |  | human, plasma | endogenous baseline diurnal | reference: daily mean concentration | relative peak deviation | 189 ± 19%
CNC(=O)c1ccc(-c2cnc3ncc(Cc4ccc5ncccc5c4)n3n2)cc1F | item: Dyspepsia | other cancer patients | oral, 600 mg twice daily, expansion cohort, grade 3-4 |  | patients with adverse event | 0%
C=CC(=O)Nc1cc(Nc2nccc(-c3cn(C4CC4)c4ccccc34)n2)c(OC)cc1N(C)CCN(C)C |  | BALB/c nude mice, LU0387 xenograft, serum | oral, 40 mg/kg |  | uric acid | 235 ± 13.8 µmol/L
CN(CC#N)C(=O)C[C@H](Nc1nc2ccccc2[nH]1)c1cccc(C(F)(F)F)c1 |  | human | intravenous infusion, 6 mg/kg, 1 mg/mL formulation |  | apparent clearance | 16.2 ± 2.72 L/h

For quick reference, copied from above:
Compound | test | system | conditions | scale | endpoint | result
CO[C@H]1C[C@@H]2CC[C@@H](C)[C@@](O)(O2)C(=O)C(=O)N2CCCC[C@H]2C(=O)O[C@H]([C@H](C)C[C@@H]2CC[C@@H](OC(=O)NCCOCCOCCOCCOCCOCCOCCOCCOCCC(=O)N3CCc4cc(Cn5nc(-c6ccc7oc(N)nc7c6)c6c(N)ncnc65)ccc4C3)[C@H](OC)C2)C[C@@H](O)[C@H](C)/C=C(\C)[C@@H](O)[C@@H](OC)C(=O)[C@H](C)C[C@H](C)/C=C/C=C/C=C/1C |  | human patients, plasma | intravenous, 10 mg, cycle 1 day 1, weekly dosing, 1 h infusion, arithmetic mean |  | Tmax | 1 h
CCn1cc(C(=O)N2CCOCC2)c(=O)c2cc(NC3Cc4ccccc4C3)cnc21 |  | human, fasted, plasma | oral, 1200 mg single dose, tablet, arithmetic mean |  | Cmax | 6430 ng/mL
NS(=O)(=O)c1ccc(-n2nc(C(F)(F)F)cc2-c2ccc(CO)cc2)cc1 |  | Sprague-Dawley rat | oral, 20 mg/kg of celecoxib, 8 h |  | blood-to-plasma ratio | 35.1
